Assay results of several laboratories.
Numbered parts are unrelated; each lists some results of a single study. “And” joins repeats or separate records; there may be more than shown.

Block 1
Cell line: mouse MPNST tumor cells
Technique: high-content immunofluorescence imaging
Measured: nuclear SOX9
Tested at: 10 µM
Time: 12 h
Setting: mean of 2 replicates
Relative to: DMSO control
Reading: higher = more nuclear SOX9
| SMILES | nuclear SOX9 intensity |
| --- | --- |
| C[C@@H]1C[C@@H]([C@H](O)CC2CC(=O)NC(=O)C2)C(=O)[C@@H](C)C1 | 72.4 % of DMSO |
| CC12CC(=O)C3C(CCC4=CC(=O)CCC43C)C1CCC2=O (centres unmarked) | 83.8 % of DMSO |
| C[C@]12CC[C@H]3[C@@H](CCC4=CC(=O)CC[C@@H]43)[C@@H]1CC[C@@H]2O | 75.7 % of DMSO |
| COc1ccc(CCN)cc1OC | 90.5 % of DMSO |
| CCCN(CCC)[C@@H]1CCc2cccc(O)c2C1 | 101 % of DMSO |
| CN(C)c1ccc(/C=C2\CCCN=C2c2cccnc2)cc1 | 93.5 % of DMSO |
| CN1C[C@H](C(=O)N[C@]2(C)O[C@@]3(O)[C@@H]4CCCN4C(=O)[C@H](Cc4ccccc4)N3C2=O)C[C@@H]2c3cccc4[nH]cc(c34)C[C@H]21 | 122 % of DMSO and 120 % of DMSO and 119 % of DMSO |
| NCCCNCCSP(=O)(O)O | 106 % of DMSO |

Block 2
Organism: Sarcocystis neurona
Read-out: parasite growth
Tested at: 10 µM
Time: 96 h
Setting: second screen
Relative to: untreated
| SMILES | log2 fold change |
| --- | --- |
| O=c1c2ccccc2[se]n1-c1ccccc1 | 0.47 |
| NC(=O)OCCCc1ccccc1 | 0.12 |
| CC[C@]1(O)CC[C@H]2[C@@H]3CCC4=CCCC[C@@H]4[C@H]3CC[C@@]21C | 0.42 |
| CCCCCCNC(=O)n1cc(F)c(=O)[nH]c1=O | -1.5 |
| O=C(O)CCCc1ccc(N(CCCl)CCCl)cc1 | 0.15 |
| O=C1Nc2ccc(Cl)cc2C(c2ccccc2Cl)=NC1O (centres unmarked) | 0.12 |

Block 3
Target: Delta-type opioid receptor (OPRD1, Homo sapiens, UniProt P41143)
Chain of UniProt P41143 (whole entry, looked up): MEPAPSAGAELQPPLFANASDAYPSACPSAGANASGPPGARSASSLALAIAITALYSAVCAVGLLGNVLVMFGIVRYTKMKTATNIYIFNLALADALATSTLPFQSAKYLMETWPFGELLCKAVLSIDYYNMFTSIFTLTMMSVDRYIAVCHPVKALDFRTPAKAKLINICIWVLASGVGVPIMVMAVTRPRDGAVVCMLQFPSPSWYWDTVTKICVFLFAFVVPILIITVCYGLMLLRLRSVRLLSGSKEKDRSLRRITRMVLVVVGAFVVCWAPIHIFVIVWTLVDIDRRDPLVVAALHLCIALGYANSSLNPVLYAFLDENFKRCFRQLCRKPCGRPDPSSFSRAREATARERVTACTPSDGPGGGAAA
Read-out: binding
Technique: radioligand binding
Tested at: 10 µM
| SMILES | inhibition [%] |
| --- | --- |
| CCOCCn1cc(C(=O)Nc2ccc(-n3nc(-c4cccnc4)cc3C(F)(F)F)cn2)ccc1=O | -6.39 |
| COc1cccc(CNC(=O)c2nc3scc(COCc4ccc(C(=O)O)cc4)c3c(=O)[nH]2)c1 | -5.04 |
| CNC(=O)c1ccc(Nc2ncc(C(F)(F)F)c(NCc3nccnc3N(C)S(C)(=O)=O)n2)cc1 | -0.28 |
| COc1nc2ccc([C@@](O)(c3ccccc3)C3CCN(C(C)=O)CC3)cc2c(Cl)c1Cc1ccc(-n2cccn2)cc1 | 7.18 |
| O=C(Nc1cnc(Oc2ccc(F)cc2)nc1)N1CCc2ncccc2[C@@H]1c1ccc(F)cc1 | -10.3 |
| CN(C)C(=O)Cn1cc(-c2nc([C@@](C)(c3ccc(-c4cnc(N)nc4)cc3)C3CC3)no2)cn1 | -7.13 |
| C[C@@]1(Cc2ccc(C#N)cc2)C(=O)N(c2cc(Cl)cc(Cl)c2)c2ncc(C(=O)NC3(c4nc(C5CCC5)no4)CC3)n21 | 8.3 |
| CC1=C(C#N)[C@@H](c2ccc3[nH]nc(C)c3c2)C(C#N)=C(c2ccc(Cl)cc2)N1 | 33.4 |
| CCOC(=O)c1cc2cc(-c3cc(C(=O)NCc4ccc(C(=O)O)cc4)nn3C)ccc2[nH]1 | -9.42 |
| CC(C)CC(=O)N1CCc2nc(-c3ccc(Br)cc3)nc(N(C)Cc3ccccc3)c2C1 | 8.22 |
| CNC(=O)c1cc(C(=O)NC2CC2)cn(Cc2ccccc2)c1=O | -2.78 |
| Cc1nc(Cc2cccc(C(F)(F)F)c2)sc1-c1ccc(C(N)=O)nc1 | 4.01 |
| CS(=O)(=O)NCC[C@H](NC(=O)c1cncc2c1cnn2-c1ccc(F)cc1)c1ccnc(S(C)(=O)=O)c1 | -2.19 |
| O=C(O)c1cc(-c2ccc(C3CCNCC3)cc2)c2ccc(-c3ccc(C(F)(F)F)cc3)cc2c1 | 36.4 |
| Cc1cc(-n2nc(Cc3cc(F)cc(C(F)(F)F)c3)nc2C)ccc1C(N)=O | -1.45 |
| O=C(NC[C@@H]1[C@H]2CN(C(=O)OCc3cc(C(F)(F)F)cc(C(F)(F)F)c3)C[C@@H]12)c1ccc2[nH]nnc2c1 | 19.6 |
| COCCc1ccc(-c2c(C)nc3c(N4CCOCC4)ccnn23)cn1 | 7.84 |
| CC(=O)N1CCC(c2ccc(C(=O)NC(=N)N)cc2C(F)(F)F)CC1 | -5.35 |
| CC(C)(O)c1cncc(-c2nc3ccc(F)cc3n2C2CC2)c1 | -10.9 |
| O=C1c2ccc(Nc3ccc(F)cc3F)cc2CCc2ccc(OC[C@H](O)CO)cc21 | 10.3 |
| CN([C@@H]1CCc2c(CC(=O)O)c3cc(S(C)(=O)=O)ccc3n2C1)S(=O)(=O)c1ccc(F)cc1 | 20 |
| CC(=O)Nc1nc(CN2CCC[C@H](Cc3cc(C)nc(C)c3)C2)cs1 | 8.67 |
| Cc1nc(C2CCN(C(=O)c3ccc(OC(F)(F)F)cc3N)CC2)c2ncc(N3CCN(C)CC3)cc2n1 | 4.34 |

Block 4
SMILES: CC(C)S(=O)(=O)c1ccc2nccc(Nc3ccc4sc(C5CCCC5)nc4c3)c2c1.Cl
Technique: CCK-8
| cell line | conditions | survival |
| --- | --- | --- |
| L929 RIPK3-/- reexpressing RIPK3 K51A/R69H | 50 µM, with: zVAD | 63.9% and 64.2% and 40.9% and 61% |
| L929 RIPK3-/- reexpressing RIPK3 K51A | 50 µM, with: zVAD | 68.5% and 67.6% and 70.4% and 70.5% and 71% |
| L929 RIPK3-/- reexpressing RIPK3 K51A/R69H | 50 µM | 61.5% and 41.7% and 64.8% and 42.4% |
| L929 RIPK3-/- reexpressing RIPK3 K51A | 6.25 µM | 94.4% and 94% and 96.7% and 96.2% |
| L929 RIPK3-/- reexpressing RIPK3 K51A/R69H | 3.125 µM | 83.9% and 97.6% and 82.1% and 86.5% |
| L929 RIPK3-/- reexpressing RIPK3 K51A/R69H | 12.5 µM | 95.7% and 79.6% and 94.3% and 95.3% and 81.2% |
| L929 RIPK3-/- reexpressing RIPK3 K51A/R69H | 25 µM | 95.3% and 69.4% and 61.1% and 73.5% |
| L929 RIPK3-/- reexpressing RIPK3 K51A | 3.125 µM | 95% and 93% and 94.2% and 96.6% |

Block 5
Cell line: HaCaT
Tested at: 100 µM
Time: 18 h
| SMILES | viability [%] |
| --- | --- |
| C[C@]12CCC(=O)C=C1CC[C@@H]1[C@@H]2CC[C@@]2(C)[C@H]1CC[C@]2(C)O | 89 |
| CC(C)c1cccc(C(C)C)c1O | 36.3 |
| O=C(CCCN1CCC2(CC1)C(=O)NCN2c1ccccc1)c1ccc(F)cc1 | 71.3 |
| O=C(O)[C@@H]1[C@H](C(=O)O)[C@H]2CC[C@@H]1O2 | 108 |
| CC(C)OC(=O)[C@H](C)N[P@](=O)(CO[C@H](C)Cn1cnc2c(N)ncnc21)Oc1ccccc1 | 116 |
| Clc1ccc(C(OCCN2CCCCC2)c2ccccc2)cc1 (centres unmarked) | 15.2 |
| CCO[C@H]1O[C@@H]2O[C@@]3(C)CC[C@H]4[C@H](C)CC[C@@H]([C@H]1C)[C@@]24OO3 | 65.2 |
| C=C1C[C@@H]2[C@H](CC[C@]3(C)C(=O)CC[C@@H]23)[C@@]2(C)C=CC(=O)C=C12 | 69.7 |

Repeated from above (block 3):
| SMILES | inhibition [%] |
| --- | --- |
| CC1=C(C#N)[C@@H](c2ccc3[nH]nc(C)c3c2)C(C#N)=C(c2ccc(Cl)cc2)N1 | 33.4 |
| CCOC(=O)c1cc2cc(-c3cc(C(=O)NCc4ccc(C(=O)O)cc4)nn3C)ccc2[nH]1 | -9.42 |
| CC(C)CC(=O)N1CCc2nc(-c3ccc(Br)cc3)nc(N(C)Cc3ccccc3)c2C1 | 8.22 |
| CNC(=O)c1cc(C(=O)NC2CC2)cn(Cc2ccccc2)c1=O | -2.78 |
| Cc1nc(Cc2cccc(C(F)(F)F)c2)sc1-c1ccc(C(N)=O)nc1 | 4.01 |
| CS(=O)(=O)NCC[C@H](NC(=O)c1cncc2c1cnn2-c1ccc(F)cc1)c1ccnc(S(C)(=O)=O)c1 | -2.19 |
| O=C(O)c1cc(-c2ccc(C3CCNCC3)cc2)c2ccc(-c3ccc(C(F)(F)F)cc3)cc2c1 | 36.4 |
| Cc1cc(-n2nc(Cc3cc(F)cc(C(F)(F)F)c3)nc2C)ccc1C(N)=O | -1.45 |
| O=C(NC[C@@H]1[C@H]2CN(C(=O)OCc3cc(C(F)(F)F)cc(C(F)(F)F)c3)C[C@@H]12)c1ccc2[nH]nnc2c1 | 19.6 |
